# Experimental data collected from several papers.
# Parts stem from different laboratories: compare values within a part only.

# Series 1
# Target: RNA binding protein fox-1 homolog 2, RRM domain, GST-SBP tag (RBFOX2, Homo sapiens, UniProt O43251-10, residues 100-194)
# Method: RNA Bind-n-Seq
# Molecule type: RNA
# Medium: in vitro
# Tested at: 365 nM
# Notes: natural RNA segment, single round, ends assumed
# Baseline: no-protein control
# Reading: higher = stronger binding
# Target sequence (chain): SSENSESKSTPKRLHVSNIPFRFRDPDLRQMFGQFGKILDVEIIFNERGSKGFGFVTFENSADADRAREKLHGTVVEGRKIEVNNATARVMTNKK
Sequence,RBNS enrichment (R)
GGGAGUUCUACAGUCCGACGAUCUCCAGAGACGGUGUUUCCAGGGGGAGGACCGCCCCCGCUUCCAGAUCCCCGGCCCCGGCUGUGACUGCCCUGUUUCACCCCUGCUGUGUCCCAUCCCCCGUCUGUCCACUUGGAAUUCUCGGGUGCCAA,0.375
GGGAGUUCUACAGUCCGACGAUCGAGGUGUGUCCUGGCCCUGCGGAGAGAAGAGGCCUGUGGUUCAGCUGGCACGCUCUGCUCCAGGCUCUGACUCAGGGGUGGCUGAGCCUCAUGCUCCCAGAACCAUGCAUUGGAAUUCUCGGGUGCCAA,0.684
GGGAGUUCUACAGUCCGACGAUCGUAGUCAAGUGUAACUAACUCCUAAGGGCAACCAUUUGUAUCUUAUAUAUCAGAAUUACUUUAUAGUUUGAAAGCACUUUGCACACAUUUCCUGUAUAUAAAGGAUGUAAUGGAAUUCUCGGGUGCCAA,1.68
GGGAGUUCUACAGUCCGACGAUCCAAAUCCACCCUCCUUGUGGGGAAGAUGGUAAUAUGGGACCAAGAGCAGCAAACGUGCUCACCUGGUGUCUUGGAGCCCAGCCUCCUGCUGAGGUUGGGGGCUCUGCCAUUGGAAUUCUCGGGUGCCAA,0.293
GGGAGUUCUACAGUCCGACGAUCUAUCCAGUGCAAUCAACUGUCAUUUCUUUUUCCUUAAAACAUAUGAGUAUAUAGAAAGAAAAGUUACAGUACUCUGUGGGAAAAUCUCAGCUGACAUCAUGAAUAGAAUGUGGAAUUCUCGGGUGCCAA,0.471
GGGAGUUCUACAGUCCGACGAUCUAUUAAUUAGGUCUAAAUACCGUGGAGCAGCCCUGAUAUCAUGCUGACAGCUUACGUGUCAGAGGGCAGAACUCAGCCAGUCCUGUGGUUUCAGGUGUUAAUAUGUAAACUGGAAUUCUCGGGUGCCAA,0.498
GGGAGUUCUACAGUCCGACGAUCAGCCAGGAGUGUUAAGCGUUCAGUGAUGUGGGGUGAAAAGUUACUACCUGUCAAGGUUUGUGUUACCCUCCUGUAAAUGGUGUACAUAAUGUAUUGUUGGUAAUUAUUUUUGGAAUUCUCGGGUGCCAA,0.453
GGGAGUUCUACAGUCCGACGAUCGCUGCUUCUUCAGUUCCUAAUACCAGACCAAGCCUCCUGAUGCCUUUCUGCACUGCAACUGUGUGAUUGAAAAAUGAGAUGUUCAUCCAAGCAGUCAAGCCACAGAAACCUGGAAUUCUCGGGUGCCAA,0.509
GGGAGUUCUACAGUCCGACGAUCCUUCCUGGCUUGAGAACAGCCCUGCUACCCUUUUUGAGCCGAAAUUUUGAAGUGGAUGCCCGUCUUGCCAGAAACGCUGUUCUCUCCAGAAUGCCCCUCCCUGCACUGGAUGGAAUUCUCGGGUGCCAA,1.19

# Series 2
# Target: Ras GTPase-activating protein-binding protein 1, C-terminal RGG region (G3BP1, Homo sapiens, UniProt Q13283)
# UniProt Q13283, sequence (whole entry, looked up): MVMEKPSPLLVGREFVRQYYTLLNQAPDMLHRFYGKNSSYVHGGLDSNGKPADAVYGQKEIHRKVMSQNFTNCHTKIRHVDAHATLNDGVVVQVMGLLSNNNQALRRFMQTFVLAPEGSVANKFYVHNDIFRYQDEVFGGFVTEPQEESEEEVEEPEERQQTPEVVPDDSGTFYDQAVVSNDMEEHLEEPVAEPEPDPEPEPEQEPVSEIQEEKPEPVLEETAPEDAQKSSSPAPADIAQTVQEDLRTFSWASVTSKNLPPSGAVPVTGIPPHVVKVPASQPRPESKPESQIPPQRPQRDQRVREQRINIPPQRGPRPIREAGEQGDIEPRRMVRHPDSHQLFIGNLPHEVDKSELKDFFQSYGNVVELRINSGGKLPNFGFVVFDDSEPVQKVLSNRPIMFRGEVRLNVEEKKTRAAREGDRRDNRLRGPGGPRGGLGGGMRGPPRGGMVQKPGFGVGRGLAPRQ
# Method: RNA Bind-n-Seq
# Molecule type: RNA
# Medium: in vitro
# Tested at: 1 µM
# Notes: whole 134-nt RNA, ends assumed
# With: 150 mM KCl
# Baseline: input library
# Reading: higher = stronger binding
Sequence,log2 enrichment
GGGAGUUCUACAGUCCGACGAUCGUCCUGUGCUACACAUCGUAUGUACCGAAUCGGGAAAAAGGAAAAAGGGGAAAAAGGGGAAAGUAUUAUGUUACGCCGUUCGGAUCUGCAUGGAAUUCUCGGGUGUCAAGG,-0.963
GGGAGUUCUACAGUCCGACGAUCAGUCCUGUGCUACACAUCGUAUGUACCGAAUCAAACCCAAAUUUAAACCCCCCCAAAAAAGUAUUAUGUUACGCCGUUCGGAUCUGCACUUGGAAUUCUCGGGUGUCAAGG,-0.932
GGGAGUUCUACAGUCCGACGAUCCUCAAGUCCUGUGCUACACAUCGUAUGUACCGAAUCGGAGGUUUGGAAAAAGGAAAGUAUUAUGUUACGCCGUUCGGAUCUGCACUUCCAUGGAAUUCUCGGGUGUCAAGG,-1.28
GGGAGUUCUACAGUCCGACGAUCUUAAGGGAAUCUAUUGCUGAACACAAACCUCAUAUUGACAAACUACUAAAGAUAGGCCCACAACUAAAGGAAUUAAACCCUGAGGAAGGGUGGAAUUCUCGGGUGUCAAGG,-1.18
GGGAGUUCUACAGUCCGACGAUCCAAGUCCUGUGCUACACAUCGUAUGUACCGAAUCGGUUUGGGUUUGGGGUUUGGGAAAGUAUUAUGUUACGCCGUUCGGAUCUGCACUUCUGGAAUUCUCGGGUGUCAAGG,-0.711
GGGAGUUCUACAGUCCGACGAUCGUCCUGUGCUACACAUCGUAUGUACCGAAUCGGUUUUUUUGGUUUUUUUGGUUUUUGGAAAGUAUUAUGUUACGCCGUUCGGAUCUGCACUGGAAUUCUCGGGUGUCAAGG,-1.33
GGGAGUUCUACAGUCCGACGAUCUGGCCCUGGUGGCAUGCGGGGAGGAAGAGGUGGCCUCAUGGAUCGUGGUGGUCCCGGUGGAAUGUUCAUAGGUGGCCGUGGUGGAGACAGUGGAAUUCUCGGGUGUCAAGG,3.2
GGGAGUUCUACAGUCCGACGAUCGUCCUGUGCUACACAUCGUAUGUACCGAAUCGGGGCCCCCGGCCCCCGGCCCCCGGGGAAAGUAUUAUGUUACGCCGUUCGGAUCUGCACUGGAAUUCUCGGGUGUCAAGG,-1.35
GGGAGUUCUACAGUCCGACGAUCUGGGAGGUGGAUUUUGUUUAUUUUUUUAGCUCAUUUCCAGGGGUGGGAAUUUUUUUUUAGUAUGUGUCAUGAAUAAAGUUGUUUUUGAAAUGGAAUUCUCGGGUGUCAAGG,3.07
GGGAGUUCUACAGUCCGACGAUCUCAAGUCCUGUGCUACACAUCGUAUGUACCGAAUCGGGAAAGGGAAAGGGAAAGGAAAGUAUUAUGUUACGCCGUUCGGAUCUGCACUUCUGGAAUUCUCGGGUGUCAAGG,-1.51

# Series 3
# Target: RING finger protein unkempt homolog, zinc fingers 1-6, GST-SBP tag (UNK, Homo sapiens, UniProt Q9C0B0, residues 30-357)
# UniProt Q9C0B0, sequence (30-357, looked up): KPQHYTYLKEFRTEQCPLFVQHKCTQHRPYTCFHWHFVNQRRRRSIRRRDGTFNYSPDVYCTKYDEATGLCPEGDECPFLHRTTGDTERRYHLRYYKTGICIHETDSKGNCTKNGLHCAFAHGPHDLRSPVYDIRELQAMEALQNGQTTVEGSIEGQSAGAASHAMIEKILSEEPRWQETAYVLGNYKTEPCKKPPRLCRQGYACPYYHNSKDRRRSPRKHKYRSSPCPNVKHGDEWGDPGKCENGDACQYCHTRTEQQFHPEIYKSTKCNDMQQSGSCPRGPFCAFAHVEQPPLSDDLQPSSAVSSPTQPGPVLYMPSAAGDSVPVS
# Method: RNA Bind-n-Seq
# Molecule type: RNA
# Medium: in vitro
# Tested at: not given
# Notes: RNA with constant flanks, human and mouse sites, ends assumed
# Baseline: input RNA pool
# Reading: higher = stronger binding
Sequence,bound/input enrichment [ratio]
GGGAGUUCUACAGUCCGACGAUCAAACAAAAAAGAGAGCAAAAGUUGAUUUCUACAAAAACAGAUAAAAAGAAGGCAGAAAAGAAGAAGAAUAAAAAGAAAGAAAUCCAGAAUGGGACCCUUCGUGAAUCUGAUUCUGAGCACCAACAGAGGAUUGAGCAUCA,0.371
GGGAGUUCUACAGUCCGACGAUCUCCACAUAUGUACGUGUAUAUAAUUAUACAUAUAUAUAUAUCUAUUUUGCCCAGGUCUGGGUUUCGUUUUUACCCAGACCCUGGCACUCCCUGUCCACUGUGUGUGUGAUCAUGCUGGGACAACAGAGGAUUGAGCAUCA,0.126
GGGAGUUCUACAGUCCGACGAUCAGGCAUUAUCUCAUUCAUACCGGUCAAAAGCCAUUUGAAUGUGAUGUGUGCCAUAAAAACUUUAGACAACUCGUUCAUCUGGAGAGGCAUCAGUUAACUCACAAUCUGCCUUUCAGUUGUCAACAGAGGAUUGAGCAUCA,0.142
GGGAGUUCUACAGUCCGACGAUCAUGGCAUAAAAUGUACCUUUGUUCUUAUUGUAUAAUAUUGAGGCUAUUACUAAUUAUUCAUAUAGGUCCCAGCAACAGAUAGAAAUGCUUUAAGUUCGCUCUGGGGAAAACUGGCCUCUGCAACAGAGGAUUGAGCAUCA,0.83
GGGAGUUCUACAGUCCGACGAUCUUUUCUUUUUCUUUUUUUAAAAGAAUGAAUGUAAGCCUUUUGUGUAAUAGGGGCAUUUGUGAUUUAAAAUUGGUGAUGUUUUAAACAGCUGCCUACAAAAGUAUUUCUGUUAAGCUGAUGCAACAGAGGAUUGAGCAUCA,0.287
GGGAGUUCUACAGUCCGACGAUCAUGCUCUUCAUUGUGUAAAAUUGCUGUUCUUUUGACAAUUUAAGUGAUUGUUUUGUUUACUGUAAGUUUGAAAAUAAAAAUGAAGAAAAAAAUUCCAAUGACUGUGCUGUGGUUGGAGACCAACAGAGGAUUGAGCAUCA,0.428
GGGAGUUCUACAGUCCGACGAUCAUUUUUCAUUUUGUUUGUUCUAAGAGGAUUGAAAAUCAGUUUAGUUUAAAUGUCUUUCUGUUAGGCCUUUCUUUCUUACAAUGAAGAGAUGAUUCUUCUAGUUUAUGGUUAAAAGUUUUUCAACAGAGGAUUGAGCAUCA,4.55
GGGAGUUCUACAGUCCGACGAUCCAUUCUCUUGCACUGUACAGAACAGAUGACUACUUAGAUCAGCCGUGUUGUGAAACCAUUAAUAGAAUUAAACUUUACAGCGAGUCUUUGGCAAGAUACGGUAAAAGCCCGUACCUGUAUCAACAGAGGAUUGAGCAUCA,2.75
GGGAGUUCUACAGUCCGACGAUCGCUGUGUCCCUGAGUGGUGGCUUUCCCUCCUGUCACGUGACAUCCCAUUCACUCAUCUACACUAGCCCAGUGCUCCCAUUGUCCCCUGCCUCCUCUGUAAUUUUUGCCCCUUCCAGGGUACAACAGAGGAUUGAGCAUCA,0.185
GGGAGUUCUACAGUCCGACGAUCGCCACAUCUGUUGCAGCUCGUGGUCUCGAUGUGAAACAUCUAAUUCUUGUAGUGAAUUACAGCUGCCCCAAUCAUUAUGAAGAUUAUGUGCACAGAGCUGGGCGGACUGGAAGAGCGGGCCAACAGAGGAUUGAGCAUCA,0.301
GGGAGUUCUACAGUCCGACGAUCGAAGGGCAUUGCAACAACAUACAUUGCUUGGCCAAAGCCAUCAACCAGAUUGCUGCAGCUUUGUUUACAAUUCACAAAGGAAGCAUUGAAGACCGUCUUAAAGAAUUUCUGGCGCUUGCACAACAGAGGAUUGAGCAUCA,0.129

# Series 4
# Target: Sal-like protein 4, full length isoform B (SALL4, Homo sapiens, UniProt Q9UJQ4-2, residues 1-616)
# Method: universal PBM
# Molecule type: double-stranded DNA, one strand shown
# Medium: in vitro
# Tested at: not given
# Notes: 8-mer, flanks averaged, mean of replicates
# Reading: higher = stronger binding
Sequence,E-score
ATGATGTG,0.119
AACCCTAA,0.00467
AACTTTCC,-0.0563
CAAAATGC,0.104
CGACGGTC,-0.273
CGATGACC,-0.163
AGCGCGTA,-0.0423
ACTCGTGG,-0.0669
AAGGTTCG,-0.154
ACCGAATG,0.0368
AGCTCACC,-0.199
ACCCCCAA,0.0478
AGGGCTCA,-0.15
GTCACTCA,-0.128
AATAAACA,0.37
AACTTCAT,0.151
CTGCAGCC,-0.22
AGCGTGTC,-0.122
ATCCTGGA,-0.0572
AAACGTAG,0.0938
AGATGAAC,-0.0309
ATGGTCTG,-0.00581
GATGGAAC,-0.0888
CGTCTACA,-0.116
AAGGCCCC,-0.27

# For quick reference, copied from above (series 4):
Sequence,E-score
ACCCCCAA,0.0478
AGGGCTCA,-0.15
GTCACTCA,-0.128
AATAAACA,0.37
AACTTCAT,0.151
CTGCAGCC,-0.22
AGCGTGTC,-0.122
ATCCTGGA,-0.0572
